Assay results gathered from unrelated publications.
± marks the error that the study gave.
IL18BP: IL18BP (Homo sapiens, UniProt O95998)
U2AF2: U2AF2 148-342 (Homo sapiens, UniProt P26368)
Chain of UniProt P26368 (whole entry, looked up): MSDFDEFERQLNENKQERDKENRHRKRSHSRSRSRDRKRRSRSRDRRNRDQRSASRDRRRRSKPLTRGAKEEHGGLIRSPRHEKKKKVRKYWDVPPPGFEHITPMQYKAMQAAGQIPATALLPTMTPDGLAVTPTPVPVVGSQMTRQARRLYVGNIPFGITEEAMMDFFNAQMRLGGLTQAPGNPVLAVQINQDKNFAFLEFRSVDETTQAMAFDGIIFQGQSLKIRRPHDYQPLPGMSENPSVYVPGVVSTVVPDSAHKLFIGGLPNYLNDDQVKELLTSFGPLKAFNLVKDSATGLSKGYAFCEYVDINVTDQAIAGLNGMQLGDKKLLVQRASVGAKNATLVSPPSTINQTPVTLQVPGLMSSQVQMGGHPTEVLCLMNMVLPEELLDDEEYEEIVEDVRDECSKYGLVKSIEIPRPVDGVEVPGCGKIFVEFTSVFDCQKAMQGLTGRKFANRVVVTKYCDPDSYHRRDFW
B1: IL18 37-193 F57C/C74S/T81C/C104S/C112S/C163S (Homo sapiens, UniProt Q14116); chain YFGKLESKLSVIRNLNDQVLCIDQGNRPLFEDMTDSDSRDNAPRCIFIISMYKDSQPRGMAVTISVKSEKISTLSSENKIISFKEMNPPDNIKDTKSDIIFFQRSVPGHDNKMQFESSSYEGYFLASEKERDLFKLILKKEDELGDRSIMFTVQNED
B2: IL18 37-193 C74S/S101C/C104S/T109C/C112S/C163S (Homo sapiens, UniProt Q14116); chain YFGKLESKLSVIRNLNDQVLFIDQGNRPLFEDMTDSDSRDNAPRTIFIISMYKDSQPRGMAVTICVKSEKISCLSSENKIISFKEMNPPDNIKDTKSDIIFFQRSVPGHDNKMQFESSSYEGYFLASEKERDLFKLILKKEDELGDRSIMFTVQNED
B3: EFR3A 721-791 (Homo sapiens, UniProt Q14156); chain SNTEEITFEALKKAIDTSGMEEQEKEKRRLVIEKFQKAPFEEIAAQCESKANLLHDRLAQILELTIRPPPS
B4: designed binder (Homo sapiens); chain MASAARLTMMWEEVTCPICLDPFVEPVSIECGHSFCQECISQVGKGGGSVCPVCRQRFLLKNLRPNRQLANMVNNLKEISQEAREGTQGERCAVHGERLHLFCEKDGKALCWVCAQSRKHRDHAMVPLEEAAQEYQEKLQVALGELRRKQELAEKLEVEIAIKRADWKKTVETQKSRIHAEFVQQKNFLVEEEQRQLQELEKDEREQLRILGEKEAKLAQQSQALQELISELDRRCHSSALELLQEVIIVLERSESWNLKDLDITSPELRSVCHVPGLKKMLRTCAGGGGSGGGGSGGGGSRLDAPSQIEVKDVTDTTALITWHRYSTHISWFELTYGIKDVPGDRTTISLWPYRRSYSIGNLKPDTEYEVSLISSGYSYSSNPAKITFKTGL
B5: TNFSF4 51-183 (Homo sapiens, UniProt P23510); sequence looked up; chain QVSHRYPRIQSIKVQFTEYKKEKGFILTSQKEDEIMKVQNNSVIINCDGFYLISLKGYFSQEVNISLHYQKDEEPLFQLKKVRSVNSLMVASLTYKDKVYLNVTTDNTSLDDFHVNGGELILIHQNPGEFCVL
Chain of UniProt Q9UDY8 (whole entry, looked up): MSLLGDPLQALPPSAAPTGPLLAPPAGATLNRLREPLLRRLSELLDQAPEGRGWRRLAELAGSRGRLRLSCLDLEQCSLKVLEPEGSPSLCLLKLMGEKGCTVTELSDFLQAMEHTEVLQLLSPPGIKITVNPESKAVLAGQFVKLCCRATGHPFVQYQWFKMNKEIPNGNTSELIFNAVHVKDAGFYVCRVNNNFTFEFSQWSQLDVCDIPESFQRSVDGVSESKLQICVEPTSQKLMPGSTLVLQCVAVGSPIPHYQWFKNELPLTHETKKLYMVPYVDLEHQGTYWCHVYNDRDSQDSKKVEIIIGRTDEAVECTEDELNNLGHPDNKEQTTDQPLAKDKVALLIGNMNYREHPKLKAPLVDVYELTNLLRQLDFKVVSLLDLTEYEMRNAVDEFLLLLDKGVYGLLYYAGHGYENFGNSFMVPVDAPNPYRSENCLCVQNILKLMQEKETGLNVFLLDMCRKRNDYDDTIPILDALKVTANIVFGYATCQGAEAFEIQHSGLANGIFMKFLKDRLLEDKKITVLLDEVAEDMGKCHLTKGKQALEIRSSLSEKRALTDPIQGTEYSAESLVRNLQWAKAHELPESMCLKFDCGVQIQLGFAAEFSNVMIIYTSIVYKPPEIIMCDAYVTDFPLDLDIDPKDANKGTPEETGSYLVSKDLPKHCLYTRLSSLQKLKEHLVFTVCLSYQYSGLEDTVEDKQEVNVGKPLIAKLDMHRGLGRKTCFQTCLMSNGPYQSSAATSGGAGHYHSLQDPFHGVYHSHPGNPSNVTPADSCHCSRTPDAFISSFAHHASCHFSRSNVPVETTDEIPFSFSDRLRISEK
Chain of UniProt P09871 (whole entry, looked up): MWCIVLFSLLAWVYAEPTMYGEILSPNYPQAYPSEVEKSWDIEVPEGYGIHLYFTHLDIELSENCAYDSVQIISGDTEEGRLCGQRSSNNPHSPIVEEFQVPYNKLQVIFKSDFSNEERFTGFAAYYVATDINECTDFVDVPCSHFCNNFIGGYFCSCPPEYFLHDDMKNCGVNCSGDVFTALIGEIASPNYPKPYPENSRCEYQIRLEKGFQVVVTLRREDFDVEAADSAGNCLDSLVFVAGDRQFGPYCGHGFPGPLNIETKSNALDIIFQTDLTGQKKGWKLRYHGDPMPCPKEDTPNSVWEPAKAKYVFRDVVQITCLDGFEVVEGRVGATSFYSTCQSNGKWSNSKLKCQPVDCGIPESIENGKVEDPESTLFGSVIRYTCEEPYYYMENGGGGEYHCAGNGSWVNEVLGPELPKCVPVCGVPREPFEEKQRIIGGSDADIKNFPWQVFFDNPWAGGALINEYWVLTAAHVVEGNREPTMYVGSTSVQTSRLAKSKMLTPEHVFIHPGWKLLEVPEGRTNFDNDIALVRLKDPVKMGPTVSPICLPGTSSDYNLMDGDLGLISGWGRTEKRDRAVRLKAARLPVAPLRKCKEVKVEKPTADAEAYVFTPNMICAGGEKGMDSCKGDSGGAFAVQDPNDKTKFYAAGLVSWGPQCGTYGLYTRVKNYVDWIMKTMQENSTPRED
Chain of UniProt P12314 (whole entry, looked up): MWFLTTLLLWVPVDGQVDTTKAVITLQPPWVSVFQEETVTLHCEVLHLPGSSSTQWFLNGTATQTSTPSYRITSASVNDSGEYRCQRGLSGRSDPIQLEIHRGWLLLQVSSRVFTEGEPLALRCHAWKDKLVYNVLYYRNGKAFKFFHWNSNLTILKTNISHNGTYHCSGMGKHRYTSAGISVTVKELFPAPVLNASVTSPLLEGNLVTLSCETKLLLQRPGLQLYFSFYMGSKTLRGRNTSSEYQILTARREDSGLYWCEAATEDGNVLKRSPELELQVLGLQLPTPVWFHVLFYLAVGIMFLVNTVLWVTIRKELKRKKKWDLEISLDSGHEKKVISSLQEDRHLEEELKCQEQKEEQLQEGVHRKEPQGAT

| Substance | tested on | test | test system | conditions | scale | measurement | value |
| --- | --- | --- | --- | --- | --- | --- | --- |
| B1 | IL18BP | SPR | – | – | – | koff | 2.2e-05 s⁻¹ |
| AGUGGAGAACUUUUCUGCCUCUG (ssRNA) | U2AF2 | ITC | RNA | – | – | Kd | 20.8 ± 1.06 µM |
| Trastuzumab IgG1 (Homo sapiens) | FCGR1A (Homo sapiens, UniProt P12314) | SPR | – | – | – | koff | 0.00058 s⁻¹ |
| YLEFDPLYVRLFYVNC (engineered peptide) | VPS35/VPS26A/VPS29 retromer complex (Homo sapiens) | SPR | peptide | – | – | koff | 0.002 s⁻¹ |
| MBL-A mature, hydroxylysine, hydroxyproline in collagen (Rattus norvegicus, UniProt P19999) | C1S (Homo sapiens, UniProt P09871) | SPR | – | together with: CaCl2 140 mM | – | koff | 0.00094 s⁻¹ |
| GAUAAAUUU (ssRNA) | U2AF2 | sequencing of bound RNA | RNA | motif only | – | Kd | 9.34 µM |
| B2 | IL18BP | SPR | – | – | – | koff | 2.4e-05 s⁻¹ |
| EGLN1 fragment | HIF1A NODD peptide 394-411, C-terminal amide (Homo sapiens) | BLI | – | – | – | koff | 0.01 s⁻¹ |
| B3 (EFR3A 721-791) | PI4KA/TTC7B/FAM126A TTC7B/FAM126A | BLI | – | – | – | koff | 3.69e-05 s⁻¹ |
| B4 (designed binder) | MALT1 (Homo sapiens, UniProt Q9UDY8) | BLI | designed binder | – | – | koff | 0.0515 s⁻¹ |
| B5 (TNFSF4 51-183) | TNFRSF4 29-170 (Homo sapiens, UniProt P43489) | SPR | – | – | – | koff | 0.061 s⁻¹ |
| human heat shock protein beta-1 | CYB5R4 knockout human cells | PP4 interaction, 3xFLAG-PP4C IP-MS | – | concentration not given | relative to: CYB5R4 KO over parental | log2 fold change | -0.15 |

A few entries again:
| Substance | tested on | test | test system | conditions | scale | measurement | value |
| --- | --- | --- | --- | --- | --- | --- | --- |
| B2 | IL18BP | SPR | – | – | – | koff | 2.4e-05 s⁻¹ |
